Published values collected from several papers.
Every numbered part comes from another study and shows a few of its results, in no order.
UniProt P42336, sequence (whole entry, unmodified, looked up): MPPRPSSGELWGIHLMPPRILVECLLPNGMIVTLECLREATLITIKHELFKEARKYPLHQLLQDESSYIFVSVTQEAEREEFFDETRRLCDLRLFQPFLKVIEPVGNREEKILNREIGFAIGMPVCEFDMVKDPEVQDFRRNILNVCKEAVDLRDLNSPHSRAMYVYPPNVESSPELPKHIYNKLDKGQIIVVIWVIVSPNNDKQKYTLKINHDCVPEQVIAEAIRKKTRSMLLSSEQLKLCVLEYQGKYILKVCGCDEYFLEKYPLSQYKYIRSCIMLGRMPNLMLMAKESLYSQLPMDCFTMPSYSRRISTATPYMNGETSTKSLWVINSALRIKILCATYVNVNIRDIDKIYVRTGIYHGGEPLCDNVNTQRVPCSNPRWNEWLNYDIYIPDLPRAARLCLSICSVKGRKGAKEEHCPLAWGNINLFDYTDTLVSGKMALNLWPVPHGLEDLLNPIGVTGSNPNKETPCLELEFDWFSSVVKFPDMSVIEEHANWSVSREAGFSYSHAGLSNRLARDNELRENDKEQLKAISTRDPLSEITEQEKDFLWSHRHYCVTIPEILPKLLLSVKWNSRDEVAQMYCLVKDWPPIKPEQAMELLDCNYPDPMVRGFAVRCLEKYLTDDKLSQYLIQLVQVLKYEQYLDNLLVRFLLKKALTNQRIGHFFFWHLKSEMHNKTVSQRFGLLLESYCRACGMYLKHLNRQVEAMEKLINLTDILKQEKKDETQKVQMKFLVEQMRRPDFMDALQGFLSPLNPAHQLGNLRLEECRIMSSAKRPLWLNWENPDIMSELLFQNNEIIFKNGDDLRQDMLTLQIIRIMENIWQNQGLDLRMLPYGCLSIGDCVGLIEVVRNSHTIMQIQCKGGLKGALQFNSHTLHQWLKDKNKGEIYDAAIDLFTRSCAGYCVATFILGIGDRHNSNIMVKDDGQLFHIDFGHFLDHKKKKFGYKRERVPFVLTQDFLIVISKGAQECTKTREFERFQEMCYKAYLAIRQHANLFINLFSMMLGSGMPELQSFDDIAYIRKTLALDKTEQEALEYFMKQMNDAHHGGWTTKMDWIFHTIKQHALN
UniProt Q02750, sequence (whole entry, looked up): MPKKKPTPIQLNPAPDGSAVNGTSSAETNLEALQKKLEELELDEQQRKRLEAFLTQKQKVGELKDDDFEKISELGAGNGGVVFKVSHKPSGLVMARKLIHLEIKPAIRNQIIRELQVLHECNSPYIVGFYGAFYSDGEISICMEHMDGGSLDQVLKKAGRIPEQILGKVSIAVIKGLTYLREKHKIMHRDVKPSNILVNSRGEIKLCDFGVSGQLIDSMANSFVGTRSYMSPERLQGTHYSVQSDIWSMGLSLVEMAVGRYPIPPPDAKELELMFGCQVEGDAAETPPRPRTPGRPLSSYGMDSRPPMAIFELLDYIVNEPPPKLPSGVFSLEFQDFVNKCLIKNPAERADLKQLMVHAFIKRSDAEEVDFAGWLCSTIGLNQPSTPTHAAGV
UniProt Q14004, sequence (whole entry, looked up): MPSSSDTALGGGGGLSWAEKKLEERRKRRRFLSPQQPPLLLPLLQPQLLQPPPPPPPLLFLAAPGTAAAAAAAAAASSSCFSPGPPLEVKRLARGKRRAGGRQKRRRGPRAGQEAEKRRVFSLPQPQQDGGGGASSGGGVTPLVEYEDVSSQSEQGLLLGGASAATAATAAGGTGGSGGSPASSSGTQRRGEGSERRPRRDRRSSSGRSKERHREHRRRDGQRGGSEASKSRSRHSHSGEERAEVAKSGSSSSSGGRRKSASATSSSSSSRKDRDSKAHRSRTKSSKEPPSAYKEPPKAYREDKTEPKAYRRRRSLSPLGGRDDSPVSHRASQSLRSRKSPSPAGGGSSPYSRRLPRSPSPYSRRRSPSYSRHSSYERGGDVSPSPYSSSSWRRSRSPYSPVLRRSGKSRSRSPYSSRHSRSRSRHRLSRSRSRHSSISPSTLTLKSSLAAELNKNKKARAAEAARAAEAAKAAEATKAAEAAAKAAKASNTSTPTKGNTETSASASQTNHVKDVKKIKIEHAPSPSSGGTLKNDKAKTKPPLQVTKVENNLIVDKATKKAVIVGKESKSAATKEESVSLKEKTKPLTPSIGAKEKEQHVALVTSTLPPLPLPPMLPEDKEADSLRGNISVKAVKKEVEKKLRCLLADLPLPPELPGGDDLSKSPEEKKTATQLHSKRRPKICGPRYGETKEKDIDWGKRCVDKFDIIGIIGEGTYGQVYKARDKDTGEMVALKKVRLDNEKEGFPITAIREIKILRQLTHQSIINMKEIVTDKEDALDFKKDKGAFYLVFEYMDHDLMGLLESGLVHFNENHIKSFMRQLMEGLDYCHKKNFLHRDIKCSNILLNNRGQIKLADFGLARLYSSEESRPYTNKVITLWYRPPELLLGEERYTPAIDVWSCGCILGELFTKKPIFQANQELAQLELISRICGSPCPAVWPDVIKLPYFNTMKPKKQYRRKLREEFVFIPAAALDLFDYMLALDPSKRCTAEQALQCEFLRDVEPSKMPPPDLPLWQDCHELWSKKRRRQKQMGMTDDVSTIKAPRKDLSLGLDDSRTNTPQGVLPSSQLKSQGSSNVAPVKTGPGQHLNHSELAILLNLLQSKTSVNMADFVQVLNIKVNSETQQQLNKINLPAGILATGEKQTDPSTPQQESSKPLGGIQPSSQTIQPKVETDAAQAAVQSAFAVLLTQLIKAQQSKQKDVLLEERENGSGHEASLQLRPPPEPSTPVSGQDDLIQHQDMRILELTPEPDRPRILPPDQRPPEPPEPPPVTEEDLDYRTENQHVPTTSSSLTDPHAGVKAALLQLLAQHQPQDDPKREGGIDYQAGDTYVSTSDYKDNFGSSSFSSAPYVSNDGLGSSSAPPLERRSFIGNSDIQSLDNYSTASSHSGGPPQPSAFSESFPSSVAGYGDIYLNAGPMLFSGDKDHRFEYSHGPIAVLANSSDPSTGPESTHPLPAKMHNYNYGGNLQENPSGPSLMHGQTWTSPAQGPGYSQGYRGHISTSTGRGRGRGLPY
UniProt Q15375, sequence (whole entry, looked up): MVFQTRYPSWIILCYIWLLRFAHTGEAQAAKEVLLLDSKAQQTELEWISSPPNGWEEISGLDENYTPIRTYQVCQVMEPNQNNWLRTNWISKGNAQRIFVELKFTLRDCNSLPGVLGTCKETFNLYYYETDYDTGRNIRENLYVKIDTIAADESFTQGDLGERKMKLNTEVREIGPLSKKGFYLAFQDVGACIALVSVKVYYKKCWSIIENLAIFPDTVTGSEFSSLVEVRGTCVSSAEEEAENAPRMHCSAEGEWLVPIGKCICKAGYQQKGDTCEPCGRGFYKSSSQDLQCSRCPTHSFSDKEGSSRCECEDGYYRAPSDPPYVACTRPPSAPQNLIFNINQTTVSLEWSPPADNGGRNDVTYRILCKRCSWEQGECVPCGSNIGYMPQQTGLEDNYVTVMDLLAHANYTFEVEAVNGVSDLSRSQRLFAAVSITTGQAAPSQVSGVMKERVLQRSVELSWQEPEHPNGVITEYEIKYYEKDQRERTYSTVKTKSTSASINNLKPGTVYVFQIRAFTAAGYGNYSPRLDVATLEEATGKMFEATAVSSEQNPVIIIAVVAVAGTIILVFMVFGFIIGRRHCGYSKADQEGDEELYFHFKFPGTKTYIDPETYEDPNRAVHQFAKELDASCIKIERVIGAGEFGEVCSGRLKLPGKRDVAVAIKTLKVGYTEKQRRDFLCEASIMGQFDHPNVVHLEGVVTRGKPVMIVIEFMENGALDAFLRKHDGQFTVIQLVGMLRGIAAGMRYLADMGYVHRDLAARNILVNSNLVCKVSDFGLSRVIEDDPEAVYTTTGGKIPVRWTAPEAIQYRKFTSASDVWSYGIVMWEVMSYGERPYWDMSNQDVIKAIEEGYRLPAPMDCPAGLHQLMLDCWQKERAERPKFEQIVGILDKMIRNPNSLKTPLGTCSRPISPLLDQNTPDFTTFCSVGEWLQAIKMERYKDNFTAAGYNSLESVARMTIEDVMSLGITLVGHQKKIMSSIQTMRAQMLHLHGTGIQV

Block 1
Target: Calcium/calmodulin-dependent protein kinase type II subunit alpha (CAMK2A, Homo sapiens, UniProt Q9UQM7)
UniProt Q9UQM7, sequence (whole entry, looked up): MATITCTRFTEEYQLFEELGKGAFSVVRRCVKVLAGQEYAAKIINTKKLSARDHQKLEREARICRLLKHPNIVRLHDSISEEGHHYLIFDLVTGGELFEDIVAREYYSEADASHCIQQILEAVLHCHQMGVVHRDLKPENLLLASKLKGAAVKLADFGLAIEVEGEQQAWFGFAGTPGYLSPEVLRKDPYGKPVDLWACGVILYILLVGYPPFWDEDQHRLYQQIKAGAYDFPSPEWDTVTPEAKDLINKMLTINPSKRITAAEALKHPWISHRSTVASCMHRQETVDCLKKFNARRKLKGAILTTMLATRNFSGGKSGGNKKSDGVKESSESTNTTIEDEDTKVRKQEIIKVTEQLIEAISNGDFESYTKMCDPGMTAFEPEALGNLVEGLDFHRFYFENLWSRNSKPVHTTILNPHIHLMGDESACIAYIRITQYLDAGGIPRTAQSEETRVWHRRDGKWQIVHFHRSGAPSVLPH
Read-out: enzyme activity
Mode: inhibitor
Concentration: 10 µM
Compound	inhibition
O=c1cc(-c2ccc(O)c(O)c2)oc2cc(O[C@@H]3O[C@H](CO)[C@@H](O)[C@H](O)[C@H]3O)c(O)c(O)c12	6%
Cc1cc(-c2ccc(/N=N/c3ccc4c(S(=O)(=O)O)cc(S(=O)(=O)O)c(N)c4c3O)c(C)c2)ccc1/N=N/c1ccc2c(S(=O)(=O)O)cc(S(=O)(=O)O)c(N)c2c1O	89%
C=C(C)[C@@H]1CC[C@]2(C(=O)O)CC[C@]3(C)[C@H](CC[C@@H]4[C@@]5(C)CC[C@H](O)[C@@](C)(CO)[C@@H]5CC[C@]43C)[C@@H]12	-15%
O=C(/C=C/c1ccc(O)c(O)c1)O[C@@H]1C[C@](O)(C(=O)O)C[C@@H](OC(=O)/C=C/c2ccc(O)c(O)c2)[C@H]1O	-38%

Block 2
SMILES: NS(=O)(=O)c1cc(NC(=O)Cc2ccccc2)ccc1Oc1cccc(Cl)c1
Concentration: 1 µM
target	read-out	technique	remaining binding [%]
MAP2K1 (Homo sapiens, UniProt Q02750)	cell-free assay	competition with immobilised ligand	97
CDK13 (Homo sapiens, UniProt Q14004)	cell-free assay	competition with immobilised ligand	92
CSNK1A1L (Homo sapiens, UniProt Q8N752)	cell-free assay	competition with immobilised ligand	74
FLT3 (Homo sapiens, UniProt P36888, D835H)	cell-free assay	competition with immobilised ligand	98
MAP3K3 (Homo sapiens, UniProt Q99759)	cell-free assay	competition with immobilised ligand	71
STK11 (Homo sapiens, UniProt Q15831)	cell-free assay	competition with immobilised ligand	51
DMPK (Homo sapiens, UniProt Q09013)	cell-free assay	competition with immobilised ligand	100
MAP2K4 (Homo sapiens, UniProt P45985)	cell-free assay	competition with immobilised ligand	82
NEK3 (Homo sapiens, UniProt P51956)	cell-free assay	competition with immobilised ligand	100
Ribosomal protein S6 kinase alpha-6, C-terminal kinase domain (RPS6KA6, Homo sapiens, UniProt Q9UK32)	cell-free assay	competition with immobilised ligand	59
PIK3CA (Homo sapiens, UniProt P42336, Q546K)	cell-free assay	competition with immobilised ligand	92
EPHA8 (Homo sapiens, UniProt P29322)	cell-free assay	competition with immobilised ligand	100
LIM domain kinase 2 (LIMK2, Homo sapiens, UniProt P53671)	cell-free assay	competition with immobilised ligand	88
SIK2 (Homo sapiens, UniProt Q9H0K1)	cell-free assay	competition with immobilised ligand	100
FGFR1 (Homo sapiens, UniProt P11362)	cell-free assay	competition with immobilised ligand	100
Tyrosine-protein kinase ABL1, non-phosphorylated (ABL1, Homo sapiens, UniProt P00519, F317L)	cell-free assay	competition with immobilised ligand	57
GSK3B (Homo sapiens, UniProt P49841)	cell-free assay	competition with immobilised ligand	80
EPHA7 (Homo sapiens, UniProt Q15375)	cell-free assay	competition with immobilised ligand	92
CDK19 (Homo sapiens, UniProt Q9BWU1)	–	competition binding	91
SRPK1 (Homo sapiens, UniProt Q96SB4)	cell-free assay	competition with immobilised ligand	62
MAP3K19 (Homo sapiens, UniProt Q56UN5)	cell-free assay	competition with immobilised ligand	78
PIK3CA (Homo sapiens, UniProt P42336, E542K)	cell-free assay	competition with immobilised ligand	87
EGFR (Homo sapiens, UniProt P00533, L858R)	cell-free assay	competition with immobilised ligand	85
EGFR (Homo sapiens, UniProt P00533, T790M)	cell-free assay	competition with immobilised ligand	100
Ribosomal protein S6 kinase alpha-2, N-terminal kinase domain (RPS6KA2, Homo sapiens, UniProt Q15349)	cell-free assay	competition with immobilised ligand	100

Block 3
SMILES: CC(C)n1cnc(-c2ccc(F)cc2)c1-c1ncc(C(=O)Nc2ccc(N3CCN(C)CC3)cc2)[nH]1
Technique: phase 2a clinical trial
Host: patients with idiopathic pulmonary fibrosis
item	dose	notes	patients with treatment-emergent adverse events
electrocardiogram high voltage	30 mg once daily	Grade 3	0%
carbon dioxide decreased	30 mg once daily	Grade 1	0%
electrocardiogram QT prolonged	60 mg once daily	Grade 5	0%
protein urine present	30 mg once daily	Grade 4	0%

Block 4
Host: human
Matrix: microsomes or S9
Concentration: 2 µM
Time: 0.5 h
Compound	remaining compound
CSc1ncc(Br)c(OC(C)C)n1	7.91%
CCC(=O)c1ccc(OCCCn2cnc3ccccc32)cc1	39.3%
Cc1nc2c(cc1Br)nc1n2C(C)CC1 (stereo not shown)	76.6%
CCOC(=O)CC1C(=O)NCCN1S(=O)(=O)c1ccc(C)cc1 (stereo not shown)	59.7%
COc1ccccc1-n1nc2c(C)nnc(C)c2c1C	99.8%
OC1(Cc2cccc(Br)c2)CCNCC1	64%
COc1ccc(-c2cc(=O)c3c(O)c(OC)c(OC)c(OC)c3o2)cc1OC	38.5%
CC(c1ccccc1Cl)N1CCN(Cc2cc[nH]n2)CC1 (stereo not shown)	64.6%

Block 5
Organism: Sarcocystis neurona
Read-out: parasite growth
Concentration: 10 µM
Time: 96 h
Notes: first screen
Relative to: untreated
SMILES	log2 fold change
CCOC(=O)OC(C)OC1=C(C(=O)Nc2ccccn2)N(C)S(=O)(=O)c2ccccc21 (stereo not shown)	0.2
CNNCc1ccc(C(=O)NC(C)C)cc1	-0.00547
NC(=O)c1ncn([C@@H]2O[C@H](CO)[C@@H](O)[C@H]2O)n1	0.18
Fc1ccc([C@@H]2CCNC[C@H]2COc2ccc3c(c2)OCO3)cc1	-0.19
CS(=O)(=O)OCCCCOS(C)(=O)=O	0.35
CC(C)OC(=O)CCC/C=C\C[C@@H]1[C@@H](CC[C@@H](O)CCc2ccccc2)[C@H](O)C[C@@H]1O	0.15

Block 6
Target: Beta-1 adrenergic receptor (ADRB1, Homo sapiens, UniProt P08588)
UniProt P08588, sequence (whole entry, looked up): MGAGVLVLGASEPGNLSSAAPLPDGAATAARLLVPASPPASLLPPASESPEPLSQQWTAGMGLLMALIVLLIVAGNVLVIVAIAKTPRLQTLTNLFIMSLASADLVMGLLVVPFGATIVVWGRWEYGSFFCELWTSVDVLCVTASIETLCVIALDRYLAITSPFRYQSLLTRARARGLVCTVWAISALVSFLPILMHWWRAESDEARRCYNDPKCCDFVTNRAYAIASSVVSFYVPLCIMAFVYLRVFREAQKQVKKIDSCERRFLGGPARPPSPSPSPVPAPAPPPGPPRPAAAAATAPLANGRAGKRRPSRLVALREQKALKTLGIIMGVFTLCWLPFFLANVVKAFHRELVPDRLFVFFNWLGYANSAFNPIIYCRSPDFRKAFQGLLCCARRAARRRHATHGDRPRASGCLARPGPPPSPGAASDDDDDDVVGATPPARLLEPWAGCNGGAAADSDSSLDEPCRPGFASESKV
Mode: agonist
Compound	EC50 [µM]
Cc1ccccc1Oc1cccc2c(=O)cc(N3CCOCC3)[nH]c12	≥ 100
Cc1noc2c(N(C)C)cc(-c3cccnc3)nc12	≥ 100
Cc1ccccc1-c1n[nH]c2ncc(-c3ccsc3)nc12	≥ 100
c1ccc(-c2ccccc2Nc2cnc3ccc(N4CCOCC4)nn23)cc1	≥ 100
Cc1ccc(-c2cc(C(=O)Nc3ccc([S+](=O)([O-])NCc4nccs4)cc3)c3ccccc3n2)cc1C	≥ 100
